Measurements pooled from the literature.
Each numbered part is a random draw from the data of one study; scales do not carry over between parts.

Sample 1
Target: Sal-like protein 4, full length isoform A (SALL4, Homo sapiens, UniProt Q9UJQ4, residues 1-1053)
Chain of UniProt Q9UJQ4 (whole entry, looked up): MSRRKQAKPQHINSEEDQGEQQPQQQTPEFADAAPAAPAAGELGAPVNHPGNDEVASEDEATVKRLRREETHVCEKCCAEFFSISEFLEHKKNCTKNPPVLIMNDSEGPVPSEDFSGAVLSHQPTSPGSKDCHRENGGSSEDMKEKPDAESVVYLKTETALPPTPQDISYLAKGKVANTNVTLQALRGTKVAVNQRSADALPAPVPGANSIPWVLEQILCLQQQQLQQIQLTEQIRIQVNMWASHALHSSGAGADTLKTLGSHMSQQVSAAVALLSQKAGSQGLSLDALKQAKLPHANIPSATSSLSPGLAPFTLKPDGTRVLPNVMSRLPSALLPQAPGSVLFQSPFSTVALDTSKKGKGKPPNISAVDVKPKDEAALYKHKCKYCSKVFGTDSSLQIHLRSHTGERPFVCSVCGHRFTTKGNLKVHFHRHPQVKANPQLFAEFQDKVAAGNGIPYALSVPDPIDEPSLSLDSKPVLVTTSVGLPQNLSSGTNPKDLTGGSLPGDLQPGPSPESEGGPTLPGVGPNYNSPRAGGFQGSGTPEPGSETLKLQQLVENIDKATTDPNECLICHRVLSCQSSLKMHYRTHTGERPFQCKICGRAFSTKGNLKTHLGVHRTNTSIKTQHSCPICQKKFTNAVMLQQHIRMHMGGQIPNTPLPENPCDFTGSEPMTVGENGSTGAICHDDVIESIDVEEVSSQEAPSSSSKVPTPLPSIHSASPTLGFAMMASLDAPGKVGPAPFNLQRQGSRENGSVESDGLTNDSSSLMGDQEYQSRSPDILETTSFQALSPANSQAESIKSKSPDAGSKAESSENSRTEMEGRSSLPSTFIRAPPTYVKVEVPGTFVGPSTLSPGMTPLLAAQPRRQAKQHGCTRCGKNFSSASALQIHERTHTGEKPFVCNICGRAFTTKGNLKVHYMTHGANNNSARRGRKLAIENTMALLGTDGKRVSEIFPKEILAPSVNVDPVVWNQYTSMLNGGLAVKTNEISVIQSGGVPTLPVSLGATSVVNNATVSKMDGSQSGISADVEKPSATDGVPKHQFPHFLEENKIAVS
Method: universal PBM
Form: double-stranded DNA, one strand shown
Sample: in vitro
Tested at: 600 nM
Notes: 8-mer, flanks averaged, mean of replicates
Direction: higher = stronger binding
Strand	E-score
CCTCAAGA	0.144
ATAAATGG	0.269
CTCAGCTA	-0.0581
TTGCTAAA	0.123
AATAGGAC	0.147
GCTACGGA	-0.109
AAAATTTC	0.2
CGCCATTC	-0.102
AATTCACG	0.117
CCGTATAA	0.046
AGCGAAGC	-0.243
ACAAGATG	0.1
TGGCACAA	0.025
GGCAAACC	-0.205
ACGAGCCG	-0.203
GCGTATAC	0.0799
CGTATGAC	0.182
GCCAATCA	-0.0962
AACAATTA	0.379

Sample 2
Target: Histone acetyltransferase KAT6A, winged helix 2, GST fusion (KAT6A, Homo sapiens, UniProt Q92794, residues 85-181)
Method: protein binding microarray
Form: double-stranded DNA, one strand shown
Sample: in vitro
Tested at: not given
Notes: 8-mer, flanks averaged, mean of 2 arrays, mostly near background
Reference: not given
Direction: higher = stronger binding
Target sequence (chain): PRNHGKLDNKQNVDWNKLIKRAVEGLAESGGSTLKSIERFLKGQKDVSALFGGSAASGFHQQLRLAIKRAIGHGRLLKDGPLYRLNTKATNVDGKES
Strand	E-score
CTGTTTAA	-0.0175
AACTGTTA	-0.0899
ACTTTTGG	0.0522
AACTAAGT	0.0159
CCTAATAA	0.0811
CGGGACCA	-0.0169
CCTGCCCC	0.132
AACCTGGG	-0.145
CCGGGGAA	0.125
ATAAGCTC	-0.0646
GCGATACA	0.0992
AGTGGAAG	-0.0125
ATGACGAC	-0.0092
CATGACAC	0.0725
CTAATTGC	0.0837
GTTACGCA	-0.0683
AAGCGCGG	-0.0619
CTAACCTA	-0.149
AATTCGCC	0.229
CAGGTAGC	-0.00205
AGTAGGCC	0.00407
GTGCTAGA	-0.0993
AACTACAG	-0.0527
GTACCAGA	0.0191
GGAGTGAC	0.0622

Sample 3
Target: RNA binding protein fox-1 homolog 2, RRM domain, GST-SBP tag (RBFOX2, Homo sapiens, UniProt O43251-10, residues 100-194)
Method: RNA Bind-n-Seq
Form: RNA
Sample: in vitro
Tested at: 365 nM
Notes: natural RNA segment, single round, ends assumed
Reference: no-protein control
Direction: higher = stronger binding
Constant ends, left off below: GGGAGUUCUACAGUCCGACGAUC … UGGAAUUCUCGGGUGCCAA
Target sequence (chain): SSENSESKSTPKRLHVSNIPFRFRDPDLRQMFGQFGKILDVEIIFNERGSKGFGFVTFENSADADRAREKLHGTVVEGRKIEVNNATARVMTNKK
Strand	RBNS enrichment (R)
GCAGCACAAAGGGCAAGGAGAGCCCCAACCCCAGUUGCUCCAAGCUCCCCAAUCACUUAGUCUUCACCUACCCCAUUCCAAUAAGCCUCAUUUCUUCUCAUCCCCUGCUU	1.63
GCUUUUAAGAGAGCCAUCAGUUAGCUAUCAGACUCUAGGUUGAUGCAUUUUGUACUUAGCUGUACUGUGUGAUAUUUUUCAUUAUUUUAGGACGCCAACAUGAGACCUGU	0.835
UGUGGCUGAGGCUGUAGCAUCUCUGCUGGAGGUGAGACACUCUGGGAACUGAUUUGACCUCGAAUGCUCCUAAAAGAGAACUUGAUAGCCUGACAGCAGAGAAGUAUUAU	1.23
AAACCAUUUCUGUCCAAGAGAAAAUGACUUUUUGCUUUGAUAUUAAAAAUUCAAUGAGUAAAACAAAAGCUAGUCAAAUGUGUUAGCAGCAUGCAGAACAAAAACUUUAA	7.16
UGUGUGACCAUAAAAUGCUGGGAGCAUUGAGUUUUGUAAUGAUUUAAUGGGUGAGGAUUGCUUUCUCCAUUAGAGCAUUAAGCUAUAACUAUCAACAUUGUAAACCAAAU	0.443
ACGAUGAUAUUGCUGAUCAAAAGUUAUGAACAGAAAUAAGAGUGACAGCUAGCUAAGUCAAGCUUUUCAAUAGAGGAGAAAAUAAAGAUGGCGACAGGUUGGCUUAGGUG	0.514
GAAGAGUUUACUUGGAUUGCAGUAGCCCAUUGGUUGUUCAUAUAUUUAAAUAAAAUGGUCUACAAACUAUUUUUCAAACAAUAAGGACUAUCUUGGGAUAUCUGAGCUGC	0.337
GAACAAAAGGAAAGGUCUUUUUUCACUGCUUAAAGUGGGGUCACUUUGAUACCUUUGCGGUCAUGUCUGUGUCUGAUGAGUGUAGAAUCUCUGGAUGUGCACUGUCAGUC	0.376
UACGGCACUGGAAAGAGUAGAGCCCAGGUGAAGCUUAGGAAAUUGGGAGCUAACACCAAGCAACUGGUUCCGUGGGGGAAGGUUUUAGGGAGCUCAGACUGCUGCUUUCA	1.83
UGGCCAUGGUACCCCCUUCUGGGCAUCUGUUCUGGUUUUUAACCAUUGUCUUGUUCUGUGAUGAGGGGAGGGGGGCACAUGCUGAGUCUCCCAAGGCUGCGUCUGGAGGG	1.7
UCUUUGGGCAGAGGUUUGAUUUUUGGCAUUUGUACAAGCCGCACGGGCAAAGGGGGAAAAGAAUGCCGUAGGGGACCACACCUAAGGGACCAAAAGAUACCCACUGUCAC	1.38
ACCUACCAGAGUUAGUGCUUCUUUAAAAACACUCCUUGGAAAGAUGGGGACUGUCCCUUAGGAAAGCCAUAAAAGUGAUUCCCAAUACUUUGCAAUUGCUUUUGAUUUUU	0.308

Sample 4
Target: RING finger protein unkempt homolog, zinc fingers 1-6, GST-SBP tag (UNK, Homo sapiens, UniProt Q9C0B0, residues 30-357)
Method: RNA Bind-n-Seq
Form: RNA
Sample: in vitro
Tested at: not given
Notes: RNA with constant flanks, human and mouse sites, ends assumed
Reference: input RNA pool
Direction: higher = stronger binding
Constant ends, left off below: GGGAGUUCUACAGUCCGACGAUC … CAACAGAGGAUUGAGCAUCA
Construct (chain): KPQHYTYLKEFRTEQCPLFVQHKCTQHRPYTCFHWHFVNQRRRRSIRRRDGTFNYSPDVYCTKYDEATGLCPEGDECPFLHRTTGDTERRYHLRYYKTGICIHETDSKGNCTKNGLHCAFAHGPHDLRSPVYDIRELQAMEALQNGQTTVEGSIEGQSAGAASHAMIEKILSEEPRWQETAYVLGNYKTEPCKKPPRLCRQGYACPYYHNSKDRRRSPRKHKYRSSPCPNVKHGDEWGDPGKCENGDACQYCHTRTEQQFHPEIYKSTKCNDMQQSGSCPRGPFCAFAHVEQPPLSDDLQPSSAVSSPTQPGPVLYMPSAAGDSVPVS
Strand	bound/input enrichment [ratio]
CAAAGCUACCCUCUGAUGGGGUCCCCCUUGCUAAUAACAUCCAUCCUUCUGACCUAUGUGUACUUCAUCCUAUCGCUUGGGCCUCGAAUCAUGGCUAAUCGGAAGCCCUUCCAACUUCGA	0.321
UUGCUUUACUGGAAAGAACCAGAAUAUGCCAAAUAUCUAAAGUACCCUCAGUGCUUACAUAUGUUAGAGCUGCUCCAGUAUGAGCACUUUCGCAAGGAGCUGGUGAAUGCGCAGUGUGCG	0.155
CUGAAGACCCAUAUCAGGCUGGGUGACGAUGCUCAGGAAACAAAGGUUUUACUGGAAAAACACAGAAAAUUUGUCGAUGUUGCCCAGAGUACUUACGACUAUGGCAGACAGCUGCUGCAG	0.31
GCCAGUAAUUGAUUGAUAACAGGAAGCUAUGAGGGACCCUGUGAGUAGCCAGUACAGUUCCUUUCUUUUCUGGAGGAUGCCCAUCCCAGAACUGGAUCUGUCGGAGCUGGAAGGCCUGGG	0.251
AAAUAUGAAACUGUGCAAGACAUUCUGAAAGAAUUCUUUGAUUUACGAUUAAGUUAUUACGGUUUACGUAAGGAGUGGCUUGUGGGAAUGUUGGGAGCAGAAUCUACAAAGCUUAACAAU	0.188
CCAUAGUAUGUGACUCUACAUAACAUACUGAAACUAUUUAUAUUUUCUUUUUUAAGGAUAUUUAGAAAUUUUGUGUAUUAUAUGGAAAAAGAAAAAAAGCUUAAGUCUGUAGUCUUUAUG	1.84
UGGUGUUGGCGGUCUGGCUCAGCUGGGCAGGGGGUAACUUUACUGAUUUGGGGGUGGUUUUUAGUUUAAUUUUUCUUUUCUAGCUUCCCAUCGACGGUCAGUGCGCACGUUGUAAUCAGC	3.19
CUGGACACCAACAGUGAUGGUCAGCUAGAUUUCUCAGAAUUUCUUAAUCUGAUUGGUGGCCUAGCUAUGGCUUGCCAUGACUCCUUCCUCAAGGCUGUCCCUUCCCAGAAGCGGACCUGA	0.0686
CUAAGUUCUUAACACAUAGUUUUGGACCUCAAAAUAACAUUUUAGAGUUAUUCUAGGCUCAAUAGUUUUUGCUUUAGAUAAUUAUUACAUUUUCCUAAAUUUGUAAUUGCUUUAUUCUGU	33.1
AUCACUUUGACCCAGAUUGUGUGACAUACACCUGAGAGGAAUUGAGGGAGUAUUGGUGUCUAGGUUGUCAUGUUUCUGUUUUGUGACACAGUGGAUGGAAAGGUUUGUCCUCUUCCUACU	0.126
CAGAUUGGAAAGAUGAGAUAUGUCAGUGUUCGGGACUUCAAAGGAAAAAUUCUAAUUGAUAUUAGAGAAUAUUGGAUGGAUUCAGAAGGUGAAAUGAAACCAGGAAGAAAAGGUAUUUCU	0.206

Sample 5
Target: Interferon regulatory factor 3, full length, phosphomimetic (IRF3, Homo sapiens, UniProt Q14653, residues 1-427, S386D/S396D/S398D/S402D/T404D/S405D)
Chain of UniProt Q14653 (whole entry, unmodified, looked up): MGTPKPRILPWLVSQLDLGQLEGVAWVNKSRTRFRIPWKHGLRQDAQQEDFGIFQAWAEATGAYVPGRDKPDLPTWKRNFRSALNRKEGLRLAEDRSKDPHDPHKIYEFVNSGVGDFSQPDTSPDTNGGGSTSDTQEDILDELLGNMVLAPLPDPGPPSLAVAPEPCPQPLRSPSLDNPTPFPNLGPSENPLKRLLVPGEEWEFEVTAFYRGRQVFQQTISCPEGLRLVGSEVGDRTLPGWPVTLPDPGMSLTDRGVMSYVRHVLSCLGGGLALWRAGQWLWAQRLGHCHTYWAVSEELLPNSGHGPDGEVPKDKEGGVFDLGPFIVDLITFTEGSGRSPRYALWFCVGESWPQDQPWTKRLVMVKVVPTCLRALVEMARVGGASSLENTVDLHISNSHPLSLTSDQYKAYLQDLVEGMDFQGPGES
Method: protein-binding microarray
Form: double-stranded DNA, one strand shown
Sample: in vitro
Tested at: 2540 nM top
Notes: 60-bp whole probe
Added: salmon DNA 0.4 mg/ml
Reference: random background probes
Direction: higher = stronger binding
Constant ends, left off below: GCCTAGCAC … GTCTTGATTCGCTTGACGCTGCTG
Strand	fitted relative affinity [z-score]
GACGGACTGGACTATCGCGACGTGCTA	-0.595
TTTGATCTCAGACTGGATTAGTGCTAG	0.0566
TCAGCTACCTCTCTTAGACTGTGCTAG	-0.0599
TTAGTTATCGGGTATCGATTAGTGCTA	0.839
GACGGACTGCTACTGCTTACGTGCTAG	-0.666
TTTTTTTTTTTTTTGGAATGGTGCTAG	1.62
GACGATCGCAGTCTCGAGACGTGCTAG	0.108
GACGGTATCGGTCTCGGTACGTGCTAG	4.85
GACGAACTGGCGTTTCGAGACGTGCTA	0.331
GACGGTTTCGACAGTGGGGACGTGCTA	2.35
TCAGCTTTCCTTCATGCACTGTGCTAG	2.18
CCAGTTGAGCACAGGAAAGTGTGCTAG	0.116
CACGATTTCAGACTGGAGACGTGCTAG	0.602
TTAGGTATCCTTTTCCTGTAGTGCTAG	7.98
GACGGTCTCCTTATCCTGCCGTGCTAG	2.5
TGAGGTTTCGGGACTGGGTTAGTGCTA	3.75
TTAGAGTTCGGGTTTCGATTAGTGCTA	1.79

Some of these lines once more (sample 1):
Strand	E-score
CGCCATTC	-0.102
AATTCACG	0.117
CCGTATAA	0.046
AGCGAAGC	-0.243
ACAAGATG	0.1
TGGCACAA	0.025
GGCAAACC	-0.205
ACGAGCCG	-0.203
GCGTATAC	0.0799
CGTATGAC	0.182
